Measured values gathered from unrelated publications.
Each line is one published result; not all experiments were run side by side. “And” joins repeats or separate records; there may be more than shown.

Structure (SMILES)	test	system	conditions	how to read	quantity	result
CC(C)(C)[Si](C)(C)Oc1ccc(COC(=O)NNc2ccccc2)cc1	–	PBS	2.5 h, 37 °C	relative to: initial amount	remaining fraction	0.97 and 0.95 and 0.99
CC(C)(C)[C@H](NC(=O)c1ccc(Oc2ccc(C(=O)N[C@H]3CCCC[C@@H]3O)cc2)cc1)C(=O)NCCN1CCCC1	–	mouse liver microsomes	1 µM, 30 min, pH 7.4	–	remaining compound	84.3%
CC[C@H](C)[C@@H](C(=O)N[C@@H](CC(C)C)C(=O)N[C@@H](CO)C(=O)N[C@@H](CO)C(=O)N[C@H](C(=O)N[C@@H](CCC(=O)O)C(=O)N[C@H](C(=O)NCC(=O)N[C@@H](CO)C(=O)N[C@@H](CC(N)=O)C(=O)N[C@H](C(=O)N1CCC[C@H]1C(N)=O)[C@@H](C)O)C(C)C)[C@@H](C)O)N(C)C(=O)[C@H](C)NC(=O)CN(C)C(=O)[C@H](Cc1ccccc1)NC(=O)[C@H](CO)NC(=O)[C@H](CO)NC(=O)[C@H](CCCNC(=N)N)NC(=O)[C@H](Cc1c[nH]cn1)NC(=O)[C@H](CC(C)C)NC(=O)[C@H](Cc1ccccc1)NC(=O)[C@H](Cc1c[nH]cn1)NC(=O)[C@H](C)NC(=O)[C@H](CC(C)C)NC(=O)[C@H](CCCNC(=N)N)NC(=O)[C@H](CCC(=O)O)NC(=O)[C@@H](NC(=O)[C@H](C)NC(=O)[C@@H]1CSSC[C@H](NC(=O)[C@H](CCCNC(=N)N)NC(=O)CC[C@H](NC(=O)CCCCCCCCCCCCCCCCCCC(=O)O)C(=O)O)C(=O)NCC(=O)N[C@@H]([C@@H](C)O)C(=O)N[C@@H](C)C(=O)N[C@@H]([C@@H](C)O)C(=O)N1)[C@@H](C)O	RP-HPLC	water	7 days, pH 6.0, 40 °C	–	remaining main peak	85 area %
Cc1ccc(C(C)C)cc1.O=C(N=P(c1ccccc1)(c1ccccc1)c1ccccc1)c1ccccn1.[Cl-].[Cl-].[Ru+2]	–	DMSO-d6	3 weeks	–	remaining intact compound	> 99%
C#Cc1c(F)ccc2cc(O)cc(-c3ncc4c(N5CC6CCC(C5)N6C(=O)OC(C)OC(=O)c5ccc6ccccc6c5)nc(OC[C@@]56CCCN5C[C@H](F)C6)nc4c3F)c12 (stereo partly shown)	–	simulated gastric fluid	1 µM, 30 min, 37 °C	–	remaining prodrug	106%
O=C(NC1CCC(F)(F)CC1)C(c1cncnc1)N(C(=O)C(F)Cl)c1ccc(-c2cncs2)cc1 (stereo not shown)	–	mouse liver microsomes	concentration not given, 0.5 h, pH 7.4	–	remaining compound	48.3%
Cc1ccc(C(C)C)cc1.[Cl-].[Cl-].[Fe+2].[Ru+2].c1cc[cH-]c1.c1ccc(P(=NCc2ccccn2)(c2ccccc2)[c-]2cccc2)cc1	–	DMSO-d6	1 month	–	remaining intact compound	> 99%
CC[C@H](C)[C@@H](C(=O)N[C@@H](CC(C)C)C(=O)N[C@@H](CO)C(=O)N[C@@H](CO)C(=O)N[C@H](C(=O)N[C@@H](CCC(=O)O)C(=O)N[C@H](C(=O)NCC(=O)N[C@@H](CO)C(=O)N[C@@H](CO)C(=O)N[C@H](C(=O)N1CCC[C@H]1C(N)=O)[C@@H](C)O)C(C)C)[C@@H](C)O)N(C)C(=O)[C@H](C)NC(=O)CN(C)C(=O)[C@H](Cc1ccccc1)NC(=O)[C@H](CO)NC(=O)[C@H](CO)NC(=O)[C@H](CCCNC(=N)N)NC(=O)[C@H](CCC(N)=O)NC(=O)[C@H](CC(C)C)NC(=O)[C@H](Cc1ccccc1)NC(=O)[C@H](Cc1c[nH]cn1)NC(=O)[C@H](C)NC(=O)[C@H](CC(C)C)NC(=O)[C@H](CCCNC(=N)N)NC(=O)[C@H](CCC(=O)O)NC(=O)[C@@H](NC(=O)[C@H](C)NC(=O)[C@@H]1CSSC[C@H](NC(=O)[C@H](CCCNC(=N)N)NC(=O)CC[C@H](NC(=O)CCCCCCCCCCCCCCCCCCC(=O)O)C(=O)O)C(=O)NCC(=O)N[C@@H]([C@@H](C)O)C(=O)N[C@@H](C)C(=O)N[C@@H]([C@@H](C)O)C(=O)N1)[C@@H](C)O	RP-HPLC	water	7 days, pH 6.0, 40 °C	–	remaining main peak	88 area %
CN(Cc1cc(C2CC2)on1)C(=O)c1cccc(-c2ccc(F)cc2)c1	–	human liver microsomes	2 µM, 30 min, pH 7.5, without ABT	–	remaining compound	72.9%
C=CC(=O)Nc1cc(Nc2nccc(-c3cn(C)c4ccccc34)n2)c(OC)cc1N(C)CCNC	storage stability	human dried blood spot	270 ng/mL, 24 h, on ice, HQC level	–	remaining amount	74.8%
CC[C@H](C)[C@@H](C(=O)N[C@@H](CC(C)C)C(=O)N[C@@H](CO)C(=O)N[C@@H](CO)C(=O)N[C@H](C(=O)N[C@@H](CCC(=O)O)C(=O)N[C@H](C(=O)NCC(=O)N[C@@H](CO)C(=O)NCC(=O)N[C@H](C(=O)N1C[C@H](O)C[C@H]1C(N)=O)[C@@H](C)O)C(C)C)[C@@H](C)O)N(C)C(=O)[C@H](C)NC(=O)CN(C)C(=O)[C@H](Cc1ccccc1)NC(=O)[C@H](CO)NC(=O)[C@H](CO)NC(=O)[C@H](CCCNC(=N)N)NC(=O)[C@@H](NC(=O)[C@H](CC(C)C)NC(=O)[C@H](Cc1ccccc1)NC(=O)[C@H](Cc1c[nH]cn1)NC(=O)[C@H](C)NC(=O)[C@H](CC(C)C)NC(=O)[C@H](CCCNC(=N)N)NC(=O)[C@H](CCC(=O)O)NC(=O)[C@@H](NC(=O)[C@H](C)NC(=O)[C@@H]1CSSC[C@H](NC(=O)[C@H](CCCNC(=N)N)NC(=O)CC[C@H](NC(=O)CCCCCCCCCCCCCCCCCCC(=O)O)C(=O)O)C(=O)NCC(=O)N[C@@H]([C@@H](C)O)C(=O)N[C@@H](C)C(=O)N[C@@H]([C@@H](C)O)C(=O)N1)[C@@H](C)O)[C@@H](C)O	RP-HPLC	water	7 days, pH 7.5, 40 °C	–	remaining main peak	95 area %
C[C@](C(=O)NC1CCC(F)(F)CC1)(c1cncnc1)N(C(=O)[C@H](F)Cl)c1ccc(OC(F)(F)F)cc1	–	mouse liver microsomes	concentration not given, 0.75 h, pH 7.4	–	remaining compound	16.5%
CC[C@H](C)[C@@H](C(=O)N[C@@H](CC(C)C)C(=O)N[C@@H](CO)C(=O)N[C@@H](CO)C(=O)N[C@H](C(=O)N[C@@H](CCC(=O)O)C(=O)N[C@H](C(=O)NCC(=O)N[C@@H](CO)C(=O)N[C@@H](CCCN)C(=O)N[C@H](C(=O)N1C[C@H](O)C[C@H]1C(N)=O)[C@@H](C)O)C(C)C)[C@@H](C)O)N(C)C(=O)[C@H](C)NC(=O)CN(C)C(=O)[C@H](Cc1ccccc1)NC(=O)[C@H](CO)NC(=O)[C@H](CO)NC(=O)[C@H](CCCNC(=N)N)NC(=O)[C@@H](NC(=O)[C@H](CC(C)C)NC(=O)[C@H](Cc1ccccc1)NC(=O)[C@H](Cc1c[nH]cn1)NC(=O)[C@H](C)NC(=O)[C@H](CC(C)C)NC(=O)[C@H](CCCNC(=N)N)NC(=O)[C@H](CCC(=O)O)NC(=O)[C@@H](NC(=O)[C@H](C)NC(=O)[C@@H]1CSSC[C@H](NC(=O)[C@H](CCCNC(=N)N)NC(=O)CC[C@H](NC(=O)CCCCCCCCCCCCCCCCCCC(=O)O)C(=O)O)C(=O)NCC(=O)N[C@@H]([C@@H](C)O)C(=O)N[C@@H](C)C(=O)N[C@@H]([C@@H](C)O)C(=O)N1)[C@@H](C)O)[C@@H](C)O	RP-HPLC	water	7 days, pH 7.5, 40 °C	–	remaining main peak	90 area %
O=C(NC1CCC(F)(F)CC1)C(c1cncnc1)N(C(=O)C(F)Cl)c1ccc(OC(F)(F)F)cc1 (stereo not shown)	–	mouse liver microsomes	concentration not given, 0.75 h, pH 7.4	–	remaining compound	100%
CC[C@H](C)[C@@H](C(=O)N[C@@H](CC(C)C)C(=O)N[C@@H](CO)C(=O)N[C@@H](CO)C(=O)N[C@H](C(=O)N[C@@H](CCC(=O)O)C(=O)N[C@H](C(=O)NCC(=O)N[C@@H](CO)C(=O)NCC(=O)N[C@H](C(=O)N1C[C@H](O)C[C@H]1C(N)=O)[C@@H](C)O)C(C)C)[C@@H](C)O)N(C)C(=O)[C@H](C)NC(=O)CN(C)C(=O)[C@H](Cc1ccccc1)NC(=O)[C@H](CO)NC(=O)[C@H](CO)NC(=O)[C@H](CCCNC(=N)N)NC(=O)[C@H](CCC(N)=O)NC(=O)[C@H](CC(C)C)NC(=O)[C@H](Cc1ccccc1)NC(=O)[C@H](Cc1c[nH]cn1)NC(=O)[C@H](C)NC(=O)[C@H](CC(C)C)NC(=O)[C@H](CCCNC(=N)N)NC(=O)[C@H](CCC(N)=O)NC(=O)[C@@H](NC(=O)[C@H](C)NC(=O)[C@@H]1CSSC[C@H](NC(=O)[C@H](CCCNC(=N)N)NC(=O)CC[C@H](NC(=O)CCCCCCCCCCCCCCCCCCC(=O)O)C(=O)O)C(=O)N[C@@H](CC(N)=O)C(=O)N[C@@H]([C@@H](C)O)C(=O)N[C@@H](C)C(=O)N[C@@H]([C@@H](C)O)C(=O)N1)[C@@H](C)O	RP-HPLC	water	7 days, pH 6.0, 40 °C	–	remaining main peak	95 area %
N=C(N)NCCC[C@@H]1NC(=O)[C@H](CCCNC(=N)N)NC(=O)[C@@H](C(c2ccccc2)c2ccccc2)NC(=O)[C@H](Cc2c[nH]c3ccccc23)NC(=O)[C@@H](C(c2ccccc2)c2ccccc2)NC(=O)[C@@H](CCCNC(=N)N)NC(=O)[C@@H](CCCNC(=N)N)NC1=O	LC-MS	human plasma	24 h	–	remaining peptide	31.2%

Some of these lines once more:
Structure (SMILES)	test	system	conditions	how to read	quantity	result
O=C(NC1CCC(F)(F)CC1)C(c1cncnc1)N(C(=O)C(F)Cl)c1ccc(OC(F)(F)F)cc1 (stereo not shown)	–	mouse liver microsomes	concentration not given, 0.75 h, pH 7.4	–	remaining compound	100%
CC[C@H](C)[C@@H](C(=O)N[C@@H](CC(C)C)C(=O)N[C@@H](CO)C(=O)N[C@@H](CO)C(=O)N[C@H](C(=O)N[C@@H](CCC(=O)O)C(=O)N[C@H](C(=O)NCC(=O)N[C@@H](CO)C(=O)NCC(=O)N[C@H](C(=O)N1C[C@H](O)C[C@H]1C(N)=O)[C@@H](C)O)C(C)C)[C@@H](C)O)N(C)C(=O)[C@H](C)NC(=O)CN(C)C(=O)[C@H](Cc1ccccc1)NC(=O)[C@H](CO)NC(=O)[C@H](CO)NC(=O)[C@H](CCCNC(=N)N)NC(=O)[C@H](CCC(N)=O)NC(=O)[C@H](CC(C)C)NC(=O)[C@H](Cc1ccccc1)NC(=O)[C@H](Cc1c[nH]cn1)NC(=O)[C@H](C)NC(=O)[C@H](CC(C)C)NC(=O)[C@H](CCCNC(=N)N)NC(=O)[C@H](CCC(N)=O)NC(=O)[C@@H](NC(=O)[C@H](C)NC(=O)[C@@H]1CSSC[C@H](NC(=O)[C@H](CCCNC(=N)N)NC(=O)CC[C@H](NC(=O)CCCCCCCCCCCCCCCCCCC(=O)O)C(=O)O)C(=O)N[C@@H](CC(N)=O)C(=O)N[C@@H]([C@@H](C)O)C(=O)N[C@@H](C)C(=O)N[C@@H]([C@@H](C)O)C(=O)N1)[C@@H](C)O	RP-HPLC	water	7 days, pH 6.0, 40 °C	–	remaining main peak	95 area %
